Experimental data gathered from unrelated publications.
A part holds a random share of what one study measured. Several values in a cell are separate wells, animals, samples, runs or records.
Chain of UniProt P42685 (whole entry, looked up): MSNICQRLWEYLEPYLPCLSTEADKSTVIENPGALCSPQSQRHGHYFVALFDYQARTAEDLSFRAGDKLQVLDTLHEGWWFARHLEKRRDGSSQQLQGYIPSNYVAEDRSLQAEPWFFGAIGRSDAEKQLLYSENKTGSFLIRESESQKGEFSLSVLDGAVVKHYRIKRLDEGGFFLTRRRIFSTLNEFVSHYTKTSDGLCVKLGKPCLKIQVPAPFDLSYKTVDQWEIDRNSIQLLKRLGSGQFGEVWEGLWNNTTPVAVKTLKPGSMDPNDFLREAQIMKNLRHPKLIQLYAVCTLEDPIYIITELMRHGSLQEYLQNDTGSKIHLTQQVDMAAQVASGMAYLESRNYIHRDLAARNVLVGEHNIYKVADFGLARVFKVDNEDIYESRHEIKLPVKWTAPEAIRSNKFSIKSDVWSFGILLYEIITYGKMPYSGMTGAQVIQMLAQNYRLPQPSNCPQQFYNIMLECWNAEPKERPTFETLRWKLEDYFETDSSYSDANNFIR
Chain of UniProt P09619 (whole entry, looked up): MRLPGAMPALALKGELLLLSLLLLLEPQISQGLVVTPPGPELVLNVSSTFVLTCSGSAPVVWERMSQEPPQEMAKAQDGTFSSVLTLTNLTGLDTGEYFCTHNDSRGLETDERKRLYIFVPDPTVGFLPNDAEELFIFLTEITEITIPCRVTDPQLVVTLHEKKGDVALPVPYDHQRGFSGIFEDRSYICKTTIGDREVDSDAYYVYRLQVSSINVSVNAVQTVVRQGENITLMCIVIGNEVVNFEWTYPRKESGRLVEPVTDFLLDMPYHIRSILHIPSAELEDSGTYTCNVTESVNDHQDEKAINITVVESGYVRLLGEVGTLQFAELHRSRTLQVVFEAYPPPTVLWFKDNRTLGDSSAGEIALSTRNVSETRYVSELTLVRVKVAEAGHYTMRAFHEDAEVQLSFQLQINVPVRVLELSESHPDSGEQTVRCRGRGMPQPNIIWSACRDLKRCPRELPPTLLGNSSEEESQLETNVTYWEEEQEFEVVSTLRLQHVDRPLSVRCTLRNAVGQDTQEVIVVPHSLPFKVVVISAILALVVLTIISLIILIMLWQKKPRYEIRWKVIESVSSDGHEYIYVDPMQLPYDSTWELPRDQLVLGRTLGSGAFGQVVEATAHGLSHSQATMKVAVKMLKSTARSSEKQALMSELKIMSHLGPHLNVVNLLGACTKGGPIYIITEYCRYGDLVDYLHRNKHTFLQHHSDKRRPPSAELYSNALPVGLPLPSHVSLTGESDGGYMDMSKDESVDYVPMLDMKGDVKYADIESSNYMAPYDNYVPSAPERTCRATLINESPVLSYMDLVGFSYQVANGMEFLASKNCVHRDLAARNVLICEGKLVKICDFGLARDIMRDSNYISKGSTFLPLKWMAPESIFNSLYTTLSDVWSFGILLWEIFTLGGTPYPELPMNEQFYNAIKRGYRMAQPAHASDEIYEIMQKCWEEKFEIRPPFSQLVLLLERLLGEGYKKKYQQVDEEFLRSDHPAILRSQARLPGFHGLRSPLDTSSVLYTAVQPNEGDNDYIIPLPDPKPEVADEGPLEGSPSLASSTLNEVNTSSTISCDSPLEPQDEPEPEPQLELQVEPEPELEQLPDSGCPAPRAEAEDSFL
Chain of UniProt Q06187 (whole entry, looked up): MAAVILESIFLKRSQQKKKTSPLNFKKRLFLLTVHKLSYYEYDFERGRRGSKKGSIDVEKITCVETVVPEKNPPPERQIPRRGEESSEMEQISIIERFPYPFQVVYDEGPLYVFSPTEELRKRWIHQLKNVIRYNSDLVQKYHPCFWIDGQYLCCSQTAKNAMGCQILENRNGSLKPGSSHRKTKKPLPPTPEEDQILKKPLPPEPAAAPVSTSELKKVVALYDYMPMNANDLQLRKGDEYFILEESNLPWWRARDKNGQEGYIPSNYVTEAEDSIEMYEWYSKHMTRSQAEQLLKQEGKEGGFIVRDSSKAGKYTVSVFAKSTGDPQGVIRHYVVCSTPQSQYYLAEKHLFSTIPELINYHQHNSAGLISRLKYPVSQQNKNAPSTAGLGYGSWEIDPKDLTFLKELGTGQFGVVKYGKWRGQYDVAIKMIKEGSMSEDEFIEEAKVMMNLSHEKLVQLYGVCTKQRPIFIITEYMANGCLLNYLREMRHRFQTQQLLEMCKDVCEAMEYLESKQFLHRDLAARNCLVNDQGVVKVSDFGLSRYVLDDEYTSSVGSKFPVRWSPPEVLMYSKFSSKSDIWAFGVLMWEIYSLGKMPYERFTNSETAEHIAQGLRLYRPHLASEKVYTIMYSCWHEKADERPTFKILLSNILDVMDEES
Chain of UniProt O14965 (whole entry, looked up): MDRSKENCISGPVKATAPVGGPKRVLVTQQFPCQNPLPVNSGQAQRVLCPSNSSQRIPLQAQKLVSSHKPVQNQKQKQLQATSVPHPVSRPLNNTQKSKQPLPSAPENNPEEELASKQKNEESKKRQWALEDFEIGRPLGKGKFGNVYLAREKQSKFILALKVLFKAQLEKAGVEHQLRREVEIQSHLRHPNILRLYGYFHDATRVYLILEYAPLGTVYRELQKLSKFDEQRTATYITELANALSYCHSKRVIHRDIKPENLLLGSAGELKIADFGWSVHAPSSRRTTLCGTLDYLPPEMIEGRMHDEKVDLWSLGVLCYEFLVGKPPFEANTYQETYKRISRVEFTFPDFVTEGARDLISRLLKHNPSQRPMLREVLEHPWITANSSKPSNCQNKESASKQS
Chain of UniProt P57059 (whole entry, looked up): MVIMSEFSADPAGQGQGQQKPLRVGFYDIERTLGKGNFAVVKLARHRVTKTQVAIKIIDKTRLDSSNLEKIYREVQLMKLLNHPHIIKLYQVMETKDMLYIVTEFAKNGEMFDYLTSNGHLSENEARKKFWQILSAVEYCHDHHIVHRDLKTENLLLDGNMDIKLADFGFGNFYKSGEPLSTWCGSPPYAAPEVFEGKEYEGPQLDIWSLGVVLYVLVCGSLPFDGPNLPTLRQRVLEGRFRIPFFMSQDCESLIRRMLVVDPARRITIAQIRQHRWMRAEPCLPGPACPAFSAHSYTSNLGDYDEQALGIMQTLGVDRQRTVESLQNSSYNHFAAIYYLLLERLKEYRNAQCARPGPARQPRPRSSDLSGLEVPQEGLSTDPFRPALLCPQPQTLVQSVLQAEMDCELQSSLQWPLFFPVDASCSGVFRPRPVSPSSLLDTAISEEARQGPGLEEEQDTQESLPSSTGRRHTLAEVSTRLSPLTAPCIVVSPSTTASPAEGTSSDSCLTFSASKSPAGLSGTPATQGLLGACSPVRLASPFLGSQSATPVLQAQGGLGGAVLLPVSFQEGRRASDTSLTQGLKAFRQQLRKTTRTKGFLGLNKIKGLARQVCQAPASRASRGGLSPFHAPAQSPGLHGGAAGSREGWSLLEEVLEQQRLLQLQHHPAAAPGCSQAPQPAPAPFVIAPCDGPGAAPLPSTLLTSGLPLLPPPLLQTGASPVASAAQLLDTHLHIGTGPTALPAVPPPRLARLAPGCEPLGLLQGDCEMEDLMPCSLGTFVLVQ
Chain of UniProt P28482 (whole entry, looked up): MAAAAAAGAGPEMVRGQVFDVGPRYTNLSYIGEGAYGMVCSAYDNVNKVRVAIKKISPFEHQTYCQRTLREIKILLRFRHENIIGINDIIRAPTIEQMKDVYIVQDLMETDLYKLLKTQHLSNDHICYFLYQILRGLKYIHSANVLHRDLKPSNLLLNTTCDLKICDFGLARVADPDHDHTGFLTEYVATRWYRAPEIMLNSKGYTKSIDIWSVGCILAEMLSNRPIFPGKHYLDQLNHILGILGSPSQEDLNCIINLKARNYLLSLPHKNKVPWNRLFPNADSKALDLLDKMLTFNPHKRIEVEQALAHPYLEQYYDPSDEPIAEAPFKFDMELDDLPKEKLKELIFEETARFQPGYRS

Study 1
Compound: CC(C)n1cnc(-c2ccc(F)cc2)c1-c1ncc(C(=O)Nc2ccc(N3CCN(C)CC3)cc2)[nH]1
Method: phase 2a trial
It gave 0% for “patients with TEAE” (patients with idiopathic pulmonary fibrosis; 30 mg once daily, nervous system disorders SOC, grade 5).
It gave 0% for “patients with TEAE” (idiopathic pulmonary fibrosis patients; oral, dose not given, CK-MB increased, grade 5, all arms).
For idiopathic pulmonary fibrosis patients; oral, 30 mg once daily, disc protrusion, grade 5: “patients with TEAE” read 0%.
The “patients with TEAE” was 0% (idiopathic pulmonary fibrosis patients; oral, 30 mg once daily, LDL increased, grade 5).
It gave 0% for “patients with TEAE” (patients with idiopathic pulmonary fibrosis; dose not given, atopic dermatitis, grade 4, all arms).

Study 2
Compound: COc1ccc2[nH]c3c4[nH]c5ccc(OC)cc5c4c4c(c3c2c1)C(=O)NC4=O
Observed: binding
Method: competition with immobilised ligand
Tested at: 1 µM
It gave 88% for remaining binding (Tyrosine-protein kinase FRK (FRK, Homo sapiens, UniProt P42685)).
It gave 100% for remaining binding (Receptor tyrosine-protein kinase erbB-2 (ERBB2, Homo sapiens, UniProt P04626)).
Mitogen-activated protein kinase kinase kinase 19 (MAP3K19, Homo sapiens, UniProt Q56UN5) — remaining binding: 0%.

Study 3
Species: human
Sample: microsomes or S9
Tested at: 2 µM
Time: 0.5 h
`c1ccc(-c2csc(-c3nc(-c4cccs4)cs3)n2)cc1` has a remaining compound of 94.7%.
`OC1(CNCc2ccccc2)CCc2ccccc21` (stereo not drawn) gave a remaining compound of 85%.
`CCc1ncc(CNC(=O)c2c[nH]c(=O)cc2OC)o1` has a remaining compound of 80%.
`O=C(c1nc2ncccn2n1)N1CCCn2cc(-c3ccccc3)nc21` has a remaining compound of 89.7%.
`Cc1ccc(S(=O)(=O)NC2c3cccc4cccc(c34)C2Sc2n[nH]c(N)n2)cc1` (stereo not drawn) has a remaining compound of 21.4%.

Study 4
SMILES: CCOc1ccc(Nc2c3c(nc4ccccc24)CCC3)cc1
Organism: Leishmania donovani
Strain: DD8
It gave 62% and 69% and 61% for inhibition (parasite killing; promastigotes; 3.33 µM, 48 h).
For parasite killing; intracellular amastigotes; 2 µM, 24 h: inhibition read 22% and 24% and 19%.
For parasite viability, resazurin; promastigotes; 6.66 µM: inhibition read 86% and 85% and 80% and 84% and 89% and 81%.
parasite killing; intracellular amastigotes; 20 µM, 24 h — inhibition: 67% and 68% and 66%.

Study 5
Organism: Sarcocystis neurona
Observed: parasite growth
Tested at: concentration not given
Notes: first screen
Relative to: untreated
For `CC(CCCCC(=O)Nc1ccc(C(F)(F)F)cc1)NCCc1cnc[nH]1` (stereo not drawn), “log2 fold change” read 0.076.
`C[C@H](N[C@@H](CCc1ccccc1)C(=O)O)C(=O)N1CCC[C@H]1C(=O)O`: “log2 fold change” -0.09.
`Cl.Cn1c(NCCN(CCO)CCCc2ccc([N+](=O)[O-])cc2)cc(=O)n(C)c1=O`: “log2 fold change” -0.07.
Under “log2 fold change”, `Cl.NC(N)=NC(=O)c1nc(Cl)c(N)nc1N.O` is recorded as 0.19.
Under “log2 fold change”, `CS(=O)(=O)O.O=C(O[C@H]1C[C@H]2CC3C[C@@H](C1)N2CC3=O)c1c[nH]c2ccccc12` is recorded as 0.0744.

Study 6
Structure (SMILES): O=C(NCc1ncc(C(F)(F)F)cc1Cl)c1ccc2c(c1)C1(CCS(=O)(=O)CC1)[C@H](C1CC1)N2S(=O)(=O)c1ccc(F)cc1
Tested at: 1 µM
For Interferon-induced, double-stranded RNA-activated protein kinase (EIF2AK2, Homo sapiens, UniProt P19525); cell-free assay, competition with immobilised ligand: remaining binding read 100%.
The remaining binding was 100% (Serine/threonine-protein kinase BRSK1 (BRSK1, Homo sapiens, UniProt Q8TDC3); cell-free assay, competition with immobilised ligand).
For Mitogen-activated protein kinase 1 (MAPK1, Homo sapiens, UniProt P28482); cell-free assay, competition with immobilised ligand: remaining binding read 81%.
It gave 92% for remaining binding (Platelet-derived growth factor receptor beta (PDGFRB, Homo sapiens, UniProt P09619); cell-free assay, competition with immobilised ligand).
For Epidermal growth factor receptor (EGFR, Homo sapiens, UniProt P00533, L858R); cell-free assay, competition with immobilised ligand: remaining binding read 94%.
It gave 93% for remaining binding (Myotonin-protein kinase (DMPK, Homo sapiens, UniProt Q09013); cell-free assay, competition with immobilised ligand).
The remaining binding was 100% (Cyclin-dependent kinase 19 (CDK19, Homo sapiens, UniProt Q9BWU1); competition binding).
Serine/threonine-protein kinase SIK1 (SIK1, Homo sapiens, UniProt P57059); competition binding — remaining binding: 100%.
Tyrosine-protein kinase FRK (FRK, Homo sapiens, UniProt P42685); cell-free assay, competition with immobilised ligand — remaining binding: 100%.
The remaining binding was 97% (Aurora kinase A (AURKA, Homo sapiens, UniProt O14965); cell-free assay, competition with immobilised ligand).
The remaining binding was 97% (Serine/threonine-protein kinase WNK2 (WNK2, Homo sapiens, UniProt Q9Y3S1); cell-free assay, competition with immobilised ligand).
It gave 100% for remaining binding (Receptor-type tyrosine-protein kinase FLT3 (FLT3, Homo sapiens, UniProt P36888, D835Y); cell-free assay, competition with immobilised ligand).
Cyclin-dependent kinase 2 (CDK2, Homo sapiens, UniProt P24941); cell-free assay, competition with immobilised ligand — remaining binding: 85%.
The remaining binding was 100% (MAP kinase-activated protein kinase 5 (MAPKAPK5, Homo sapiens, UniProt Q8IW41); cell-free assay, competition with immobilised ligand).
Mitogen-activated protein kinase 15 (MAPK15, Homo sapiens, UniProt Q8TD08); cell-free assay, competition with immobilised ligand — remaining binding: 100%.
For Tyrosine-protein kinase Lck (LCK, Homo sapiens, UniProt P06239); cell-free assay, competition with immobilised ligand: remaining binding read 100%.
Serine/threonine-protein kinase PAK 2 (PAK2, Homo sapiens, UniProt Q13177); cell-free assay, competition with immobilised ligand — remaining binding: 100%.
It gave 100% for remaining binding (Tyrosine-protein kinase SYK (SYK, Homo sapiens, UniProt P43405); cell-free assay, competition with immobilised ligand).
The remaining binding was 64% (Tyrosine-protein kinase BTK (BTK, Homo sapiens, UniProt Q06187); cell-free assay, competition with immobilised ligand).
For Ephrin type-A receptor 5 (EPHA5, Homo sapiens, UniProt P54756); cell-free assay, competition with immobilised ligand: remaining binding read 100%.

Some of these lines once more (study 6):
The remaining binding was 64% (Tyrosine-protein kinase BTK (BTK, Homo sapiens, UniProt Q06187); cell-free assay, competition with immobilised ligand).
For Interferon-induced, double-stranded RNA-activated protein kinase (EIF2AK2, Homo sapiens, UniProt P19525); cell-free assay, competition with immobilised ligand: remaining binding read 100%.
